Experimental data gathered from unrelated publications.
A part holds a random share of what one study measured.
Sequence of UniProt P11802 (whole entry, looked up): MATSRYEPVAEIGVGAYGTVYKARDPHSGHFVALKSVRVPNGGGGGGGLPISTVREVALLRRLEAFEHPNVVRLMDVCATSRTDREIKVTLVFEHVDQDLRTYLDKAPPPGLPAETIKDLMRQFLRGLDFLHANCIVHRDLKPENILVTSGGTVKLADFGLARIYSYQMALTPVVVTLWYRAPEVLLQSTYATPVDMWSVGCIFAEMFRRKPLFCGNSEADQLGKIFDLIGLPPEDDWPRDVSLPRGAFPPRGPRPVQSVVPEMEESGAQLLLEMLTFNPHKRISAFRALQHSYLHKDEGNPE
Sequence of UniProt P78362 (whole entry, looked up): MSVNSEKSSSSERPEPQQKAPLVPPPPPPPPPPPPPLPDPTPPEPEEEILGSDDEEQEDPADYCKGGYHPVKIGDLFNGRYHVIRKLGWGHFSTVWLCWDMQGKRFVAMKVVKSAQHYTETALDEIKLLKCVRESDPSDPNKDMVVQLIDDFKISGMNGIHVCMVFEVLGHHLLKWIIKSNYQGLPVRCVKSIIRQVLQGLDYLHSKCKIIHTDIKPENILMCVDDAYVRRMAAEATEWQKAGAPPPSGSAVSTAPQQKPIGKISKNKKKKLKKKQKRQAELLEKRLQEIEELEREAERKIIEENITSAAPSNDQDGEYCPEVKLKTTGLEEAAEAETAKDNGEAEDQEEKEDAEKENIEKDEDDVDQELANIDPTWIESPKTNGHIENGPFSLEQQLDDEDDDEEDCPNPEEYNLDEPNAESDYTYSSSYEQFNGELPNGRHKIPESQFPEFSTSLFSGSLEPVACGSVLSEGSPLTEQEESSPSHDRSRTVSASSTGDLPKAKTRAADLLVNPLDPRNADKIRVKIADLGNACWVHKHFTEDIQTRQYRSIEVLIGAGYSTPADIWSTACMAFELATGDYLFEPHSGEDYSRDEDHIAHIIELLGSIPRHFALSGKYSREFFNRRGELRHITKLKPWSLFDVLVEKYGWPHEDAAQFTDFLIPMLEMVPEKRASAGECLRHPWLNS
Sequence of UniProt Q9UEE5 (whole entry, looked up): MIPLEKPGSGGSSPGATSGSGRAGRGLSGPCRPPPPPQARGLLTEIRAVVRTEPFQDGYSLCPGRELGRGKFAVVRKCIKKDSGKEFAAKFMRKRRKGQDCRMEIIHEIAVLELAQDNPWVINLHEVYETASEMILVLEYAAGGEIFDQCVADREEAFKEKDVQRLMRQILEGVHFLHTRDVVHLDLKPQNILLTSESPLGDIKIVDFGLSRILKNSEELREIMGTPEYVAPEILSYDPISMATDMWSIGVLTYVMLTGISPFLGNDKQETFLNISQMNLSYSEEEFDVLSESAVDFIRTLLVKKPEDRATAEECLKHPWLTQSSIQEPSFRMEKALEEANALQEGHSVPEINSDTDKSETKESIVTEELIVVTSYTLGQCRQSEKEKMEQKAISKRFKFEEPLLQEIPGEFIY
Sequence of UniProt Q00526 (whole entry, looked up): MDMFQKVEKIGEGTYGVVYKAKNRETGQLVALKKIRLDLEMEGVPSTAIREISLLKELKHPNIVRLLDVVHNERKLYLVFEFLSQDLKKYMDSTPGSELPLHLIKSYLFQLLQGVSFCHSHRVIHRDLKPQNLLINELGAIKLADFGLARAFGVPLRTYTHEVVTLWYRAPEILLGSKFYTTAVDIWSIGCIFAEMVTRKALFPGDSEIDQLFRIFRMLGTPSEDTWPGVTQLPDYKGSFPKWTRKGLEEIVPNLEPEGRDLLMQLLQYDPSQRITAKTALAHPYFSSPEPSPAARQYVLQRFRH
Sequence of UniProt P51955 (whole entry, looked up): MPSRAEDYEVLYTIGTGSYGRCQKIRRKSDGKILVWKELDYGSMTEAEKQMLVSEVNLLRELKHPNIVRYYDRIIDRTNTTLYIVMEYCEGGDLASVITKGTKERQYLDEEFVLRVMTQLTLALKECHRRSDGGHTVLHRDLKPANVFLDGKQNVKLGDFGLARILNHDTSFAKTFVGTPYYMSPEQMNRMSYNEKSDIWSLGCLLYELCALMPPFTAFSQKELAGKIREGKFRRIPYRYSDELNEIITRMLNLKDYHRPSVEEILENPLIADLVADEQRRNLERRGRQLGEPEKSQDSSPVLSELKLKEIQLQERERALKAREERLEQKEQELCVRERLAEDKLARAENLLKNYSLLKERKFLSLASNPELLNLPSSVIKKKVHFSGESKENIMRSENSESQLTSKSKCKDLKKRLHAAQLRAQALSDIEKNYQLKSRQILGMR
Sequence of UniProt P50613 (whole entry, looked up): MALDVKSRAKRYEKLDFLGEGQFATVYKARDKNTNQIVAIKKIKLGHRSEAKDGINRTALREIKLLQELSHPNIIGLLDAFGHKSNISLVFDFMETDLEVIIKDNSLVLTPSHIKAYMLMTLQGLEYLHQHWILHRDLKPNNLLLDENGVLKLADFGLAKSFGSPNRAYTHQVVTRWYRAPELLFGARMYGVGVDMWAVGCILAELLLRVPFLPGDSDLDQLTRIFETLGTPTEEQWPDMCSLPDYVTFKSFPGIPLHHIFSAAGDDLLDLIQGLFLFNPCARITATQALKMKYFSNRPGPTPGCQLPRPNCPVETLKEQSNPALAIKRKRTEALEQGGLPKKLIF
Sequence of UniProt P00519 (whole entry, looked up): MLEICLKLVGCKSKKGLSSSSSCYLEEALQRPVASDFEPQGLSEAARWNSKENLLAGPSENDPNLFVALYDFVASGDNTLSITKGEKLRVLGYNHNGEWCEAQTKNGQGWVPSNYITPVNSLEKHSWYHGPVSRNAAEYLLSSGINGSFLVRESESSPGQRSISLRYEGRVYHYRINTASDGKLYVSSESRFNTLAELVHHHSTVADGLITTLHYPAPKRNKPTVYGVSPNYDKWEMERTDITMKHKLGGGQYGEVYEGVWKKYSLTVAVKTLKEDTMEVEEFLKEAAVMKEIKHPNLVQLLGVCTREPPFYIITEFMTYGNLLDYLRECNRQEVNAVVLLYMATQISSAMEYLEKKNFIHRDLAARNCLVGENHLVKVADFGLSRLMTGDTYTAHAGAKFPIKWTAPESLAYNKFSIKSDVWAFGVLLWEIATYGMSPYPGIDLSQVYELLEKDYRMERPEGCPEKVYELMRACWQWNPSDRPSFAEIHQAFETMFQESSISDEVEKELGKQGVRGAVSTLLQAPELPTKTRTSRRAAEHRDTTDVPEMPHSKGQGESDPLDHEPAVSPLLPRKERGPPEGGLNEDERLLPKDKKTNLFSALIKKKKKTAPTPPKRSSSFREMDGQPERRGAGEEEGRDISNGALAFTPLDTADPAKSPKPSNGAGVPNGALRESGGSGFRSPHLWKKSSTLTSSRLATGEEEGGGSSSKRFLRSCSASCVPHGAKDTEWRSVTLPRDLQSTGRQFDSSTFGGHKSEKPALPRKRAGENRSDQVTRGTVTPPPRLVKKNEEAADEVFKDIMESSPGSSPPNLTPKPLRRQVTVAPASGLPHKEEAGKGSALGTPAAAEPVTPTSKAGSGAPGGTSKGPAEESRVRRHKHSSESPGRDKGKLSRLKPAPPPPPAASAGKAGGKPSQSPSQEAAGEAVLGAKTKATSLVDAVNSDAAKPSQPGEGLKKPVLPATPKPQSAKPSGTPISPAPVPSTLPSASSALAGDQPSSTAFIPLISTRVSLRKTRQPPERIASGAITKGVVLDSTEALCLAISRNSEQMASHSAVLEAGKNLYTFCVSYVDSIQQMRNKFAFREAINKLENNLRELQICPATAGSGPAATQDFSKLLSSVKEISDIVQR

Study 1
Target: Probable WRKY transcription factor 11, DNA-binding domain (WRKY11, Arabidopsis thaliana, UniProt Q9SV15, residues 228-325)
Technique: DNA-protein interaction ELISA
Molecule type: double-stranded DNA, one strand shown
Matrix: in vitro, bacterial lysate
Concentration: not given
Notes: whole dsDNA probe, crude lysate protein
Reference: highest signal in screen
Direction: higher = stronger binding
Target sequence (chain): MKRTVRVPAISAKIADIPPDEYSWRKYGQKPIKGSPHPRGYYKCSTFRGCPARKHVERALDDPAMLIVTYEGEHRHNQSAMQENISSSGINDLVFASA
With `AAAAAAGTATAACGTGTTGTTGACCGAAAA` the relative absorbance was 100 % of maximum.
`AAAAAAGTGTTTGTGCTTCTCTCTGTAAAA` has a relative absorbance of 15.3 % of maximum.
With `AAAAAAGCTGTCACTGTAGTCGGTCCAAAA` the relative absorbance was 17.9 % of maximum.
`AAAAAACCGGCACGATTTGGATATTCAAAA` has a relative absorbance of 16.1 % of maximum.
With `AAAAAATGGAAGGAGAGGGATGAAATAAAA` the relative absorbance was 13.3 % of maximum.
`AAAAAAGTCGTTACACGTATGCGTGCAAAA` has a relative absorbance of 42.1 % of maximum.
With `AAAAAAGTGCACGACCCATTTATATAAAAA` the relative absorbance was 12.4 % of maximum.
`AAAAAATACTCTTCCTCGTTCTTGGTAAAA` has a relative absorbance of 13.8 % of maximum.

Study 2
Target: Tyrosine-protein kinase JAK3 (JAK3, Homo sapiens, UniProt P52333)
Sequence of UniProt P52333 (whole entry, looked up): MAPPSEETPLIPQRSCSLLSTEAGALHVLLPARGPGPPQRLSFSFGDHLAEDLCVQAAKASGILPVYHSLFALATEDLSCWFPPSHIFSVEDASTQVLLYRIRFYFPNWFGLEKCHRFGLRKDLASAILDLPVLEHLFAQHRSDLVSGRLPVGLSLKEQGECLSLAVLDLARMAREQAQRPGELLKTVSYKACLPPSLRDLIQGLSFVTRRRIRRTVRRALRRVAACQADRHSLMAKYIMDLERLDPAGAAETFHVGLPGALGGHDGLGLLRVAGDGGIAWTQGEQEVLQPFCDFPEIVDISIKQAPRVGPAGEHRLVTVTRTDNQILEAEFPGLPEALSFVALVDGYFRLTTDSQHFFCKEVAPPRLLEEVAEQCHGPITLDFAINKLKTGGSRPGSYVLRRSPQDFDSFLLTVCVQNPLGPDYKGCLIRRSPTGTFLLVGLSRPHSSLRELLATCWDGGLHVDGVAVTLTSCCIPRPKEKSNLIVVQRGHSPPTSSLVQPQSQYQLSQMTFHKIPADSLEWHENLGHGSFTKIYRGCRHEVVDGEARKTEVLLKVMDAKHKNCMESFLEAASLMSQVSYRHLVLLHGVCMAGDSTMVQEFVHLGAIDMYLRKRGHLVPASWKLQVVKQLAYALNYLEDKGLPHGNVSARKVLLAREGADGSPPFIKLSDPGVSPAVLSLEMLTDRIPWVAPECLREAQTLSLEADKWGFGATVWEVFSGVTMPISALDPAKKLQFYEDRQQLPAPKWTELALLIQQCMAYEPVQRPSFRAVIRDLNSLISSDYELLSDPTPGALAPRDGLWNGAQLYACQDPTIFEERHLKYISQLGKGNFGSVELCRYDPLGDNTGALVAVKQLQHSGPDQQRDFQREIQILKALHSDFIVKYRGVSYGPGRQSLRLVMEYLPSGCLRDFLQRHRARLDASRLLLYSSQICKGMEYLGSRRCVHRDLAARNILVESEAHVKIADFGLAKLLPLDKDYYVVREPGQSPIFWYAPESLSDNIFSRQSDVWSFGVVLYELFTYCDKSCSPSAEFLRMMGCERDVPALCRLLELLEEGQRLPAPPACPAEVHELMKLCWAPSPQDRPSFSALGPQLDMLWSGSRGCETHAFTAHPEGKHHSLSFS
Effect on: enzyme activity
Mode: inhibitor
Concentration: 0.5 µM
Reference: control
The remaining activity of Cc1ccc(Nc2nccc(N(C)c3ccc4c(C)n(C)nc4c3)n2)cc1S(N)(=O)=O is reported as 95.3%.
The remaining activity of Nc1[nH]nc2nc3ccccc3nc12 is reported as 68%.
With Nc1ncnc2n[nH]c(Nc3ccc(F)cc3)c12 the remaining activity was 102%.
The remaining activity of CCOC(=O)c1c(C)[nH]c(/C=C2\C(=O)Nc3ccccc32)c1C is reported as 69.1%.
COc1cc2nccc(Oc3ccc(NC(=S)NC(=O)c4ccccc4C)cc3)c2cc1OC gave a remaining activity of 96.6%.
Cc1cccc(-c2[nH]c(C(C)(C)C)nc2-c2ccc3c(c2)OCO3)n1 has a remaining activity of 92.6%.
With O=C1NC(=O)C(c2cn(CCCn3ccnc3)c3ccccc23)=C1Nc1ccccc1 the remaining activity was 7.97%.
Cc1nc(-c2ccccc2)c(-c2ccncc2)o1 gave a remaining activity of 90.7%.
For COc1ccc(OC)c2c(=S)c3ccccc3[nH]c12, the remaining activity was 96.7%.
For Cn1sc(=O)n(Cc2ccccc2)c1=O, the remaining activity was 106%.
With COc1ccc(C(=O)Nc2sc3c(c2C(N)=O)CCCC3)cc1OC the remaining activity was 108%.

Study 3
Structure (SMILES): O=c1nc(-c2ccccn2)sc2ccccc12
Technique: competition with immobilised ligand
Concentration: 1 µM
It gave 100% for remaining binding (IKBKB (Homo sapiens, UniProt O14920); cell-free assay).
SRPK2 (Homo sapiens, UniProt P78362); binding — remaining binding: 100%.
NEK2 (Homo sapiens, UniProt P51955); binding — remaining binding: 84%.
For Cyclin-dependent kinase 4, with cyclin D1 (CDK4, Homo sapiens, UniProt P11802); binding: remaining binding read 100%.
For CAMK1D (Homo sapiens, UniProt Q8IU85); cell-free assay: remaining binding read 90%.
It gave 100% for remaining binding (FGR (Homo sapiens, UniProt P09769); cell-free assay).
For CDK3 (Homo sapiens, UniProt Q00526); binding: remaining binding read 99%.
CDK7 (Homo sapiens, UniProt P50613); binding — remaining binding: 69%.
STK17A (Homo sapiens, UniProt Q9UEE5); binding — remaining binding: 100%.
The remaining binding was 89% (Tyrosine-protein kinase ABL1, phosphorylated (ABL1, Homo sapiens, UniProt P00519); binding).

Study 4
Partner: ARF11 500-622 (Arabidopsis thaliana, UniProt Q9ZPY6)
Technique: two-hybrid
Reference: out of 4 tests
Direction: higher = firmer interaction
B1: IAA27 (Arabidopsis thaliana, UniProt Q9ZSY8); chain MSVSVAAEHDYIGLSEFPTMEATTMSDKTKTRDNNNGLNFKATELRLGLPGSESPERVDSRFLALNKSSCPVSGAKRVFSDAINDSNKWVFSPGSTTATGDVGSGSGPRTSVVKDGKSTTFTKPAVPVKEKKSSATAPASKAQVVGWPPIRSFRKNSMASSQSQKPGNNSETEEAEAKSGPEQPCLYVKVSMEGAPYLRKIDLKTYKSYLELSSALEKMFSCFTIGQFGSHGGCGRDGLNESRLTDLLRGSEYVVTYEDKDSDWMLVGDVPWEMFICSCKKLRIMKSSEAIGLAPRVMEKCRSRN
B2: ARF6 790-935 (Arabidopsis thaliana, UniProt Q9ZTX8); chain SENPQSNTFVKVYKSGSFGRSLDISKFSSYHELRSELARMFGLEGQLEDPVRSGWQLVFVDRENDVLLLGDDPWPEFVSSVWCIKILSPQEVQQMGKRGLELLNSAPSSNNVDKLPSNGNCDDFGNRSDPRNLGNGIASVGGSFNY
B3: IAA28 (Arabidopsis thaliana, UniProt Q9XFM0); chain MEEEKRLELRLAPPCHQFTSNNNINGSKQKSSTKETSFLSNNRVEVAPVVGWPPVRSSRRNLTAQLKEEMKKKESDEEKELYVKINMEGVPIGRKVNLSAYNNYQQLSHAVDQLFSKKDSWDLNRQYTLVYEDTEGDKVLVGDVPWEMFVSTVKRLHVLKTSHAFSLSPRKHGKE
B4: ARF10 575-693 (Arabidopsis thaliana, UniProt Q9SKN5); chain LQGLETGHCKVFMESEDVGRTLDLSVIGSYQELYRKLAEMFHIEERSDLLTHVVYRDANGVIKRIGDEPFSDFMKATKRLTIKMDIGGDNVRKTWITGIRTGENGIDASTKTGPLSIFA
B5: IAA32 (Arabidopsis thaliana, UniProt Q8RYC6); chain MDPNTPADFFKGSSKFHTYYSQTKKGGGVIDLGLSLRTIQHETYLPPARMIGLDGYGELIDWSQPSYNSITQLKSEDTGHQRLAQGYYNNEGESRGKYAYVKVNLDGLVVGRKVCLVDQGAYATLALQLNDMFGMQTVSGLRLFQTESEFSLVYRDREGIWRNVGDVPWKEFVESVDRMRIARRNDALLPF
Residues (chain): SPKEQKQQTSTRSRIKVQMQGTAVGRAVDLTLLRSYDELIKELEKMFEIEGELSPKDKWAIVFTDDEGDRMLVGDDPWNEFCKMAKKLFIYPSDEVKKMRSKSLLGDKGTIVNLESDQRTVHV
`B1 (IAA27)` gave a positive tests of 0.
With `B2 (ARF6 790-935)` the positive tests was 1.
With `B3 (IAA28)` the positive tests was 0.
`B4 (ARF10 575-693)` gave a positive tests of 0.
`B5 (IAA32)` has a positive tests of 0.

Excerpt of the above (study 2):
With Nc1ncnc2n[nH]c(Nc3ccc(F)cc3)c12 the remaining activity was 102%.
The remaining activity of CCOC(=O)c1c(C)[nH]c(/C=C2\C(=O)Nc3ccccc32)c1C is reported as 69.1%.
COc1cc2nccc(Oc3ccc(NC(=S)NC(=O)c4ccccc4C)cc3)c2cc1OC gave a remaining activity of 96.6%.
Cc1cccc(-c2[nH]c(C(C)(C)C)nc2-c2ccc3c(c2)OCO3)n1 has a remaining activity of 92.6%.
With O=C1NC(=O)C(c2cn(CCCn3ccnc3)c3ccccc23)=C1Nc1ccccc1 the remaining activity was 7.97%.
